Measured values collected from several papers.
Lines come from different studies, so protocols differ. Several values in a cell are separate wells, animals, samples, runs or records. ± gives the spread as reported.
BIRC3 BIR1 domain: Baculoviral IAP repeat-containing protein 3, BIR1 domain (BIRC3, Homo sapiens, UniProt Q13489)
UniProt Q13489, sequence (whole entry, looked up): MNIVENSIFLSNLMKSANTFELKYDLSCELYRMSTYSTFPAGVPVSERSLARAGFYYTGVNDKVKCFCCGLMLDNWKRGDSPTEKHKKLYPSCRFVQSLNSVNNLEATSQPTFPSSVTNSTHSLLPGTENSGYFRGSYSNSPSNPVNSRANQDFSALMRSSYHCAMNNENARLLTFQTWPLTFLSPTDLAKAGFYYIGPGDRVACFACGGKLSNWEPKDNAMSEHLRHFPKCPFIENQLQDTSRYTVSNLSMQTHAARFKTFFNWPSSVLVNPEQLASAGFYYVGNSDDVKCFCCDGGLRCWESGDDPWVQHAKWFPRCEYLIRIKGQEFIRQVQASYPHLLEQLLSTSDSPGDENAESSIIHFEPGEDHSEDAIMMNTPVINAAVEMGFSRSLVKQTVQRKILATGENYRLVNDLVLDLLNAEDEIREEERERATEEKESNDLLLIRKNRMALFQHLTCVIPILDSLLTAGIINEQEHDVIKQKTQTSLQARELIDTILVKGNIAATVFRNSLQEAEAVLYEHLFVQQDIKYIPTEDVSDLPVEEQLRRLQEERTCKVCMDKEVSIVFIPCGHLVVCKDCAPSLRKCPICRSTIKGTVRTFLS
ESR2: Estrogen receptor beta (ESR2, Homo sapiens, UniProt Q92731)
UniProt Q92731, sequence (whole entry, looked up): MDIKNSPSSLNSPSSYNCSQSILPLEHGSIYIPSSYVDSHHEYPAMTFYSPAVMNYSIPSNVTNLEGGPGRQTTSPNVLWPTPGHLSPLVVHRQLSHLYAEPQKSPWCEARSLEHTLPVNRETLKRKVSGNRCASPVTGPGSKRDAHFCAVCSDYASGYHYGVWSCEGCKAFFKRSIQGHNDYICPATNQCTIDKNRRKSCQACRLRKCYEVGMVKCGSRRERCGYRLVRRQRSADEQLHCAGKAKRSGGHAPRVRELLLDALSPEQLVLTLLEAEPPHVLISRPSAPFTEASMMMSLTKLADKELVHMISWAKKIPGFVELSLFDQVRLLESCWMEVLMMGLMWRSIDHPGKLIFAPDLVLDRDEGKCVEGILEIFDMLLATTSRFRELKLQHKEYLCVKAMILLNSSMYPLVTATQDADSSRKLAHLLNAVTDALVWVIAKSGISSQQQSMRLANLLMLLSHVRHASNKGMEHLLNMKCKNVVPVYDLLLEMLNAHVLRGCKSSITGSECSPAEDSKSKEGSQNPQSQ
HTR2C: 5-hydroxytryptamine receptor 2C (HTR2C, Homo sapiens, UniProt P28335)
UniProt P28335, sequence (whole entry, looked up): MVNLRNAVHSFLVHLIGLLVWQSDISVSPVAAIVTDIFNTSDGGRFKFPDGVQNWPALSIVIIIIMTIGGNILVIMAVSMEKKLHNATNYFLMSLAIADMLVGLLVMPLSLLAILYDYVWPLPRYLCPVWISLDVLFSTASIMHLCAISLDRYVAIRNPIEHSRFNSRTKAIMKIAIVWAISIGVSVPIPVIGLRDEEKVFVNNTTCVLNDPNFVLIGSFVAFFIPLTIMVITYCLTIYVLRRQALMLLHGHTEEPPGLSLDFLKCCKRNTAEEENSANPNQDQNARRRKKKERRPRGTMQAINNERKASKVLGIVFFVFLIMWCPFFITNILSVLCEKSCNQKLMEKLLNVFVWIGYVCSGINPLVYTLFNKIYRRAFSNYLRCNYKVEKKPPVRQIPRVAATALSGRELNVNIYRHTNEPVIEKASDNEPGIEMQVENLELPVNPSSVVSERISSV
Protein kinase C-like 1: Protein kinase C-like 1 (Candida albicans, UniProt P43057)
UniProt P43057, sequence (whole entry, looked up): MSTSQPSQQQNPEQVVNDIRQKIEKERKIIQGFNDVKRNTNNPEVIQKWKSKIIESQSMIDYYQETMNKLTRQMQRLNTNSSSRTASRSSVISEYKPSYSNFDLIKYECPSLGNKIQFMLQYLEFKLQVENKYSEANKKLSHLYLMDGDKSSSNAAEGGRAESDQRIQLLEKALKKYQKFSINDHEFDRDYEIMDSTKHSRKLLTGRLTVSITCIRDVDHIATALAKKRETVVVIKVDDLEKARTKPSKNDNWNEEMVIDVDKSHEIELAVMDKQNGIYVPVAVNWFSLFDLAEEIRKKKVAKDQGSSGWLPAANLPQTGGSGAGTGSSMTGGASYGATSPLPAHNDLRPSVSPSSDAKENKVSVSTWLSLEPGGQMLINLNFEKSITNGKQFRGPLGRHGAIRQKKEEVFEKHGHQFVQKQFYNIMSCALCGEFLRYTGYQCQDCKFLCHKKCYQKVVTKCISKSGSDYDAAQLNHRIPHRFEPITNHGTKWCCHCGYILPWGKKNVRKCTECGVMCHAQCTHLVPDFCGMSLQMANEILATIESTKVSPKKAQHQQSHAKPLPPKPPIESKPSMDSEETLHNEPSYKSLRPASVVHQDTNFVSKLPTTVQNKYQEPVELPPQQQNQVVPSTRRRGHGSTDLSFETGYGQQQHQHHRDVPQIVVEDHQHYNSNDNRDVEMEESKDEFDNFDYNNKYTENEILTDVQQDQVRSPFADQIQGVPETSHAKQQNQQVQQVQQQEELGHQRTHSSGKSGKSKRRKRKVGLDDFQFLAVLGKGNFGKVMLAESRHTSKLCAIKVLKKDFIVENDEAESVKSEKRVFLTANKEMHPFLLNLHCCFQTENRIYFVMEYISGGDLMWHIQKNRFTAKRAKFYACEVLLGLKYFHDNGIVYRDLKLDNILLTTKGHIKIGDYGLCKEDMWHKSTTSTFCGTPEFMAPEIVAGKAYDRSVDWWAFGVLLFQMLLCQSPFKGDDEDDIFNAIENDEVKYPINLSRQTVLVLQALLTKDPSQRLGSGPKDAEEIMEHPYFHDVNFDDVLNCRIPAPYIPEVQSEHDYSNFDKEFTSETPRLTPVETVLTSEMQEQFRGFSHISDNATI
T1: neomycin riboswitch RNA U14C, 5'-triphosphate, 2',3'-cyclic phosphate; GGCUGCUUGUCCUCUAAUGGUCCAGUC
UniProt Q16774, sequence (whole entry, unmodified, looked up): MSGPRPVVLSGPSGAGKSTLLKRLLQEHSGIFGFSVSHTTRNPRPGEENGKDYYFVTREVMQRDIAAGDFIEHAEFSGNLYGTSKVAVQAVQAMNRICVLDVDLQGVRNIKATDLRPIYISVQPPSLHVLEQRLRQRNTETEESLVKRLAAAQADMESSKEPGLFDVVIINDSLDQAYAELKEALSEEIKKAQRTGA
UniProt O76090, sequence (whole entry, unmodified, looked up): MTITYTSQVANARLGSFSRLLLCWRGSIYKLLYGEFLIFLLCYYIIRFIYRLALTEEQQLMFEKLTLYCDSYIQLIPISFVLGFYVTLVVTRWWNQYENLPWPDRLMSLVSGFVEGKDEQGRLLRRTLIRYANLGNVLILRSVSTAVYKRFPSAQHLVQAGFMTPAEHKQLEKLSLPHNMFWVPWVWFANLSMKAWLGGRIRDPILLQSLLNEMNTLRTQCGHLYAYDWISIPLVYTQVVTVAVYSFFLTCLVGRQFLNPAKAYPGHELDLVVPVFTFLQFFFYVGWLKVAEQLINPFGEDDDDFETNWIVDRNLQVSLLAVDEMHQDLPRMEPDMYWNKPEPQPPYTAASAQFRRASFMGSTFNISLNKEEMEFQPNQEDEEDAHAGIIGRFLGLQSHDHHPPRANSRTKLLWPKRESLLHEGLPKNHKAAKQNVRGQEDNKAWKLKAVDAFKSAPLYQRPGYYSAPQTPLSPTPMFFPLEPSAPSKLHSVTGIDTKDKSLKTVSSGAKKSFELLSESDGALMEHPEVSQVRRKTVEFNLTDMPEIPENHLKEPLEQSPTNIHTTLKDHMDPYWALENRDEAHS
UniProt Q695T7, sequence (whole entry, looked up): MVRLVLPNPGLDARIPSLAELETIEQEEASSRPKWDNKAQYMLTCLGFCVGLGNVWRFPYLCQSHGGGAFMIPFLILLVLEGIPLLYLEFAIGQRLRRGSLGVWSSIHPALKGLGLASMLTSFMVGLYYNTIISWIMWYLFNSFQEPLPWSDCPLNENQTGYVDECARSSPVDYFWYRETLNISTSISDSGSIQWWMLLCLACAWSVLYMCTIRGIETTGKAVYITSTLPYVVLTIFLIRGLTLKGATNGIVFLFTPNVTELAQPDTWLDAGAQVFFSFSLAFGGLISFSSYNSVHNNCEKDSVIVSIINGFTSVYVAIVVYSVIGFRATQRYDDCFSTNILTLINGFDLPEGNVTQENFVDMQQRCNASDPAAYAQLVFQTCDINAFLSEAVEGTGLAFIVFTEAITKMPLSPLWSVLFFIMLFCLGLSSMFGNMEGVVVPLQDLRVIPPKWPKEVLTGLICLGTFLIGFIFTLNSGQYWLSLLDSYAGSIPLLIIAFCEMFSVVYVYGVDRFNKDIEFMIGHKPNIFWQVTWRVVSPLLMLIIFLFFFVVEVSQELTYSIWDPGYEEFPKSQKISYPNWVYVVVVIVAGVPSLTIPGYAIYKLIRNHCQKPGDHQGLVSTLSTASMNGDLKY
UniProt P51575, sequence (whole entry, unmodified, looked up): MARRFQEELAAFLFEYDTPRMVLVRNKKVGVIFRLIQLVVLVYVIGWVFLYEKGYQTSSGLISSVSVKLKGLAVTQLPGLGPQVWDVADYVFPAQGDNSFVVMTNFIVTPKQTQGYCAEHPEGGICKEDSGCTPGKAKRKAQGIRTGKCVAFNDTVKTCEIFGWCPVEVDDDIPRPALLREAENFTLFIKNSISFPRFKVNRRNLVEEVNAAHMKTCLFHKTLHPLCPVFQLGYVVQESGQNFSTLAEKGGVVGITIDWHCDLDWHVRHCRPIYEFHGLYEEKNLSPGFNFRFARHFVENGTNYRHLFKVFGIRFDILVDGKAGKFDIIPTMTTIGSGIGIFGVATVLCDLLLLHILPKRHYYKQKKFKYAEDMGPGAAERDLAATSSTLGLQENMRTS
UniProt P19099, sequence (whole entry, looked up): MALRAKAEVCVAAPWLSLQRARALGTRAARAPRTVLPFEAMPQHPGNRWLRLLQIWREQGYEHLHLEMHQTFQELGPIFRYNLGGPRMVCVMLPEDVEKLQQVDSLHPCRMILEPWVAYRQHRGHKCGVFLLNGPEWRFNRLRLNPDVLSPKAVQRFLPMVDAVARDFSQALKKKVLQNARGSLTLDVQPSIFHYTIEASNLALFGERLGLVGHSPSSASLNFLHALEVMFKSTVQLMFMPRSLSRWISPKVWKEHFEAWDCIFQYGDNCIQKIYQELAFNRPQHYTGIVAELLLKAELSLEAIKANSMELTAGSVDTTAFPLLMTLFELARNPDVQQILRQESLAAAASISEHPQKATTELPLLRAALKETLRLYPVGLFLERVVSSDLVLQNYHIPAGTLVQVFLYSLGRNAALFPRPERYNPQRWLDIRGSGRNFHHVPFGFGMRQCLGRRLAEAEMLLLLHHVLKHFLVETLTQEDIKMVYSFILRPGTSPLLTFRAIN

SMILES | target | assay | system | setting | how to read | quantity | result
O=C(O)c1ccc(Nc2ncc3c(n2)-c2ccc(Cl)cc2C(c2c(F)cccc2F)=NC3)cc1 | Flt4(h) | kinase activity |  | 1 µM |  | remaining activity | 6%
C=CC(=O)N1CCC(COCC(=O)N2CCN(c3nc(-c4cnc(N)nc4C(F)F)nc(N4CCOC[C@@H]4C)n3)CC2)CC1 | GRK2 (Homo sapiens, UniProt P25098) | KINOMEscan |  | 1 µM |  | remaining binding | 100%
C=CC(=O)N1CCC(C(=O)NCC(=O)N2CCN(c3nc(-c4cnc(N)nc4C(F)F)nc(N4CCOCC4)n3)CC2)CC1 | MAP3K13 (Homo sapiens, UniProt O43283) | KINOMEscan |  | 1 µM |  | remaining binding | 100%
CCCC[C@H](NC(C)=O)C(=O)N[C@@H](CO)C(=O)N[C@H](C(=O)N1CCC[C@H]1C(=O)N[C@@H](C)C(=O)N[C@@H](CCCNC(=N)N)C(=O)N[C@@H](CCCNC(=N)N)C(=O)N[C@@H](CCCNC(=N)N)C(=O)N[C@@H](CC(C)C)C(=O)N[C@@H](CCCC)C(=O)N[C@@H](CCCNC(=N)N)C(=O)N[C@@H](CC(=O)O)C(=O)N[C@@H](Cc1ccccc1)C(=O)N[C@@H](CCCCN)C(=O)N[C@@H](CCCNC(=N)N)C(=O)N[C@@H](CC(C)C)C(=O)N[C@@H](CCC(N)=O)C(N)=O)[C@@H](C)O | UBA1 (Homo sapiens, UniProt P22314) | HDX-MS |  | 10 s, peptide alone without UBE1 | reference: undeuterated peptide | relative deuterium uptake | 14.3 Da and 14.2 Da
CN(C(=O)n1cnc(-c2ccc[n+]([O-])c2)c1)C1CCCCC1 | CCKAR (Homo sapiens, UniProt P32238) |  |  | 10 µM |  | inhibition | 8.04%
COCCOC(=O)C1=C(C)NC(C)=C(C(=O)OC(C)C)C1c1cccc([N+](=O)[O-])c1 (centres unmarked) | Nedd8-cullin1 interaction | neddylation, AlphaScreen |  | 100 µM |  | inhibition | -30.7%
Cc1cccc(N2CC(C(=O)O)CC2=O)c1 (centres unmarked) | BIRC3 BIR1 domain | binding, affinity selection mass spectrometry |  |  | reference: other proteins in batch | log fold enrichment | -0.0061
Nc1ccc(C(=O)O)cc1 | BEST1, with wild-type BEST1 (Homo sapiens, UniProt O76090, L234P) | ion current, whole-cell patch clamp | HEK293 co-expressing mutant and wild-type | concentration not given, voltage -80 mV |  | current density | -41.7 pA/pF and -6.74 pA/pF and -12.3 pA/pF and -20.7 pA/pF and -17.2 pA/pF and -10.8 pA/pF
Cc1ccc(N2CC(C(N)=O)CC2=O)cc1 (centres unmarked) | BIRC3 BIR1 domain | binding, affinity selection mass spectrometry |  |  | reference: other proteins in batch | log fold enrichment | 0.0527
CCS(=O)(=O)N1CC(CC#N)(n2cc(-c3ncnc4[nH]ccc34)cn2)C1 | ORM1 (Homo sapiens, UniProt P02763) |  |  | added: K^+ |  | change in binding constant | -28.3%
COc1ccc(-c2coc3cc(O)ccc3c2=O)cc1O | ESR2 | array formation, agonist | GFP-ERβ PRL-HeLa | 1 h |  | EC50 | 1.75 µM
COc1ccc(N2Cc3ccc(O)cc3OC2=O)cc1OC | MIF (Homo sapiens, UniProt P14174) | inhibitor, ELISA |  | up to 50 µM |  | binding inhibition | no inhibition
[Cl-].[Na+] | GUK1 (Homo sapiens, UniProt Q16774) | enzyme activity, NADH-coupled |  | 150 mM |  | reaction velocity | 0.017 µM/s and -0.00707 µM/s and -0.000699 µM/s
Cc1ncccc1OC[C@@H]1CN(CCN2CCc3ccccc32)CCO1 | HTR2C | radioligand binding |  | concentration not given, added: [3H]mesulergine |  | inhibition | 1.7%
CC[C@@H](C)[C@@H](NC(=O)[C@@H](Cc1ccc(O)cc1)NC(=O)[C@H]1CCCN1C(=O)[C@@H](CCCNC(=N)N)NC(=O)[C@H](N)Cc1c[nH]cn1)C(=O)N[C@H](C)C(=O)N[C@H](Cc1c[nH]cn1)C(=O)N[C@H](CCCNC(=N)N)C(=O)N[C@@H](C(=O)N[C@H](Cc1ccc(O)cc1)C(=O)N[C@H](CO)C(=O)N[C@H](Cc1ccccc1)C(N)=O)C(C)C | Transferrin receptor protein 1 (Tfrc, Mus musculus, UniProt Q62351) | flow cytometry | RAW264.7 | 48 h, pH 6, replicate 3, unit not given | reference: 0 h | surface TFRC expression | 1.13
Cc1ccccc1C1CC(=O)c2c(C)nc(N)nc2C1 (centres unmarked) | RFWD3 (Homo sapiens, UniProt Q6PCD5) | binding, affinity selection mass spectrometry |  |  | reference: other proteins in batch | log fold enrichment | -0.0483
COc1ccc2c(c1)CN(CCCN1CCN(c3ccccc3OC)CC1)C2=O | HTR2C | radioligand binding |  | concentration not given, added: [3H]mesulergine |  | inhibition | 58.5%
CC1CCCN(C(=O)c2cc3ncccn3n2)C1 (centres unmarked) | Histone acetyltransferase type B catalytic subunit (Homo sapiens, UniProt O14929) | binding, affinity selection mass spectrometry |  |  | reference: other proteins in batch | log fold enrichment | 0.0426
CCOC(=O)C1=C(O)C(=O)N(Cc2ccccc2)C1 | TDP1 (Homo sapiens, UniProt Q9NUW8) | binding, small molecule microarray |  | added: AF647-labelled TDP1 1 µM | direction not given | Z score | 3.14

SMILES | target | assay | system | setting | how to read | quantity | result
C[C@]12C[C@H](O)[C@H]3[C@@H](CCC4=CC(=O)CC[C@@]43C)[C@@H]1CC[C@@H]2C(=O)CO | CYP11B2 (Homo sapiens, UniProt P19099) | substrate |  | 100 µM, 37 °C, phospholipid vesicles |  | 18-hydroxylation product formation rate | 12.2 ± 1 min⁻¹
Nc1ccc2cc3ccc(N)cc3nc2c1 | Chymotrypsinogen A, activated (alpha-chymotrypsin) (Bos taurus, UniProt P00766) | isothermal titration calorimetry |  | concentration not given, pH 7.4, 25 °C |  | binding enthalpy | -12.7 ± 1.1 kcal/mol
CN1CCN(C(=O)c2cccc(-c3nc(N)nc(-c4ccccc4O)n3)c2)CC1 | human adenosine A2A receptor I66A | biophysical mapping |  | concentration not given | reference: wild type | pKD change | 0.1
N#Cc1ccc2[nH]cc(CCCCN3CCN(c4ccc5oc(C(N)=O)cc5c4)CC3)c2c1 | SLC6A4 (Homo sapiens, UniProt P31645, R104K) | [3H]5-HT uptake, inhibitor | COS-7 |  |  | Hill coefficient | 1.43 ± 0.2
CCCCC/C=C/C(=O)CCc1ccc(O)c(OC)c1 | ESR2 | array formation, agonist | GFP-ERβ PRL-HeLa | 1 h |  | EC50 | 2.32 µM
O=C(CCCCCCC(=O)Nc1ccccc1)NO | HDAC8 (Homo sapiens, UniProt Q9BY41) | ITC | Tris-HCl buffer | concentration not given, 298 K |  | binding stoichiometry | 0.9
O=C1c2ccccc2CCN1CCCCN1CCN(c2ccccn2)CC1 | HTR2C | radioligand binding |  | concentration not given, added: [3H]mesulergine |  | inhibition | 63%
c1ccc(-c2n[nH]cc2-c2ccnc3ccccc23)nc1 | Protein kinase C-like 1 | kinase binding, competitor, MIB/MS competition, measured: PKC1 | Candida albicans cell lysate | 1 µM | reference: DMSO | log2 fold change | 1.32
CC(C)NCC(O)COc1ccc(CC(N)=O)cc1 (centres unmarked) | Nedd8-cullin1 interaction | neddylation, AlphaScreen |  | 100 µM |  | inhibition | 26.5%
NCCCS(=O)(=O)O | SLC6A6 (Homo sapiens, UniProt P31641, Y138A) | binding, microscale thermophoresis |  | 62.5 µM, room temperature, added: 50 nM labelled protein | higher = more binding | normalised MST signal | 0.246
NC[C@H]1O[C@H](O[C@H]2[C@H](O[C@@H]3O[C@H](CO)[C@@H](O)[C@H]3O)[C@@H](O)[C@H](N)C[C@@H]2N)[C@H](N)[C@@H](O)[C@@H]1O | T1, neomycin riboswitch RNA U14C, 5'-triphosphate, 2',3'-cyclic phosphate | NMR |  | pH 6.2, 10 °C |  | binding | binds
Nc1ncnc2c1ncn2[C@@H]1O[C@H](COP(=O)(O)CP(=O)(O)OP(=O)(O)O)[C@@H](O)[C@H]1O | P2X purinoceptor 1 (P2RX1, Homo sapiens, UniProt P51575, E282A) | saturation binding | HEK293 | 79 nM |  | specific binding | 1500 CCPM and 1910 CCPM
Cc1nc(CSc2nc(SCc3ccc(C(C)C)cc3)nc(=O)[nH]2)cs1 | TOP2A (Homo sapiens, UniProt P11388) | DNA relaxation |  | 62.5 µM, replicate 2 |  | relaxed DNA | 99.8%
Oc1ccccc1-c1n[nH]cc1-c1ccnc2ccccc12 | Protein kinase C-like 1 | kinase binding, MIB/MS competition | Candida albicans lysate | 10 µM | reference: DMSO, negative = stronger binding | log2 fold change | 0.24
COC1=C(OC)C(=O)C(CC=C(C)C)=C(C)C1=O | FSP1, ancestral | substrate |  | co-substrate fixed |  | Km | 2.15 ± 0.36 µM
Cc1cc(Cl)cc(C)c1OCC(=O)NC(C)C | SLC6A19 (Homo sapiens, UniProt Q695T7) | membrane potential, FLIPR membrane potential | CHO-BC cells | concentration not given, first screen | reference: uninhibited control | normalised transport activity | 0.934 and 0.84 and 0.91 and 0.921
O=C1CC[C@H](N2Cc3cc(N4CCN(CC5CCN(c6ccc([C@@H]7c8ccc(O)cc8CC[C@@H]7c7ccccc7)cc6)CC5)CC4)ccc3C2=O)C(=O)N1 | Estrogen receptor (Esr1, Rattus norvegicus, UniProt P06211) | degrader | immature Sprague-Dawley rat | oral, 30 mg/kg daily x3, day 4 | reference: vehicle | uterine protein reduction | 76%
CC1Cc2ccccc2N1C(=O)NCCCCN(C)[C@@H]1Cc2cccc3[nH]c(=O)n(c23)C1 (mixture of isomers) | HTR2A (Homo sapiens, UniProt P28223) | binding |  | added: [3H]5-HT |  | Hill slope | -0.7 ± 0.1
Nc1nc2c(ncn2[C@@H]2O[C@H](COP(=O)(O)O)[C@@H](O)[C@H]2O)c(=O)[nH]1 | GUK1 (Homo sapiens, UniProt Q16774, Y53A) | enzyme activity, NADH-coupled |  | 31.25 µM |  | reaction rate | -1.08 s⁻¹ and -0.456 s⁻¹ and -0.619 s⁻¹

For quick reference, copied from above:
SMILES | target | assay | system | setting | how to read | quantity | result
COC1=C(OC)C(=O)C(CC=C(C)C)=C(C)C1=O | FSP1, ancestral | substrate |  | co-substrate fixed |  | Km | 2.15 ± 0.36 µM
Cc1cc(Cl)cc(C)c1OCC(=O)NC(C)C | SLC6A19 (Homo sapiens, UniProt Q695T7) | membrane potential, FLIPR membrane potential | CHO-BC cells | concentration not given, first screen | reference: uninhibited control | normalised transport activity | 0.934 and 0.84 and 0.91 and 0.921
O=C1CC[C@H](N2Cc3cc(N4CCN(CC5CCN(c6ccc([C@@H]7c8ccc(O)cc8CC[C@@H]7c7ccccc7)cc6)CC5)CC4)ccc3C2=O)C(=O)N1 | Estrogen receptor (Esr1, Rattus norvegicus, UniProt P06211) | degrader | immature Sprague-Dawley rat | oral, 30 mg/kg daily x3, day 4 | reference: vehicle | uterine protein reduction | 76%
CC1Cc2ccccc2N1C(=O)NCCCCN(C)[C@@H]1Cc2cccc3[nH]c(=O)n(c23)C1 (mixture of isomers) | HTR2A (Homo sapiens, UniProt P28223) | binding |  | added: [3H]5-HT |  | Hill slope | -0.7 ± 0.1
Nc1nc2c(ncn2[C@@H]2O[C@H](COP(=O)(O)O)[C@@H](O)[C@H]2O)c(=O)[nH]1 | GUK1 (Homo sapiens, UniProt Q16774, Y53A) | enzyme activity, NADH-coupled |  | 31.25 µM |  | reaction rate | -1.08 s⁻¹ and -0.456 s⁻¹ and -0.619 s⁻¹
